Experimental data from different studies.
Each line is one published result; not all experiments were run side by side.
Target: Gag-Pol polyprotein, reverse transcriptase (gag-pol, Human immunodeficiency virus type 1 group M subtype B, UniProt P04585)
Observed: enzyme activity
Mode: inhibitor

COC(=O)c1ccccc1NC(=O)Cc1cn(OC)c2ccccc12
IC50: > 30 µM

Cc1cc(C#N)cc(C)c1Oc1cc(Nc2ccc(C#N)cn2)nc2ccncc12
IC50 (ELISA): 0.218 µM

O=C1Nc2c(CO)ccnc2N(C2CC2)c2ncccc21
IC50 (ELISA): 26.5 µM

Cc1cc(/C=C/C#N)cc(C)c1Oc1cc(Nc2ccc(C#N)cn2)nc2ccncc12
IC50 (ELISA): 0.175 µM

O=C1Nc2cccnc2N(C2CC2)c2ncccc21
IC50 (ELISA): 0.00086 µM

CCc1c(CC2CCCCC2)nc(SCC(=O)c2ccccc2)[nH]c1=O
IC50: 0.28 µM

Cc1c(Br)cnc2c1NC(=O)c1cccnc1N2C1CC1
IC50 (ELISA): 2.78 µM

Cc1cnc2c(c1)NC(=O)c1cccnc1N2C1CC1
IC50 (ELISA): 0.00107 µM

For quick reference, copied from above:
O=C1Nc2c(CO)ccnc2N(C2CC2)c2ncccc21
IC50 (ELISA): 26.5 µM
